Measured values gathered from unrelated publications.
Values joined by “and” are separate records of one study, mostly repeats; a detail may differ. ± gives the spread as reported.
USP51: Ubiquitin carboxyl-terminal hydrolase 51 (USP51, Homo sapiens, UniProt Q70EK9)
UniProt Q70EK9, sequence (whole entry, looked up): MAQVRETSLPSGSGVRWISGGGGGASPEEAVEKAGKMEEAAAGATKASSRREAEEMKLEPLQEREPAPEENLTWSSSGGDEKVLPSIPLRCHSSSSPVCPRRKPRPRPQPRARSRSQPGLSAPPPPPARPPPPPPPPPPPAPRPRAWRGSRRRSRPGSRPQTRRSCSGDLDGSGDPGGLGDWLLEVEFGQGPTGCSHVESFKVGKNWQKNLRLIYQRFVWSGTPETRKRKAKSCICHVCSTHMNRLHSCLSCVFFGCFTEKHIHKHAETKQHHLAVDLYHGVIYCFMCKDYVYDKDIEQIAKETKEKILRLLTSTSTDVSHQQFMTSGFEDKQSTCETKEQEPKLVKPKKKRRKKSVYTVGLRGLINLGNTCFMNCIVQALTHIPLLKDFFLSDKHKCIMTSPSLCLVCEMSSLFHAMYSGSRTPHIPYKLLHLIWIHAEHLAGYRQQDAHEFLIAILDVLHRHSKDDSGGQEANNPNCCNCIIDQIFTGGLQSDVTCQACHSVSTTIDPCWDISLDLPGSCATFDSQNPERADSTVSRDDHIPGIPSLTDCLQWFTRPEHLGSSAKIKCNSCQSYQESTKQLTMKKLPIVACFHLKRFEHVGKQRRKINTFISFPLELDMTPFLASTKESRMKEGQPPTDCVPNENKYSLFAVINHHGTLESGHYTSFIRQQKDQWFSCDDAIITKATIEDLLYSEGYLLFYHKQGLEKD
Adhesin FmlH lectin domain: Adhesin FmlH, lectin domain (Escherichia coli, UniProt Q1RBS0)
MAL12: Alpha-glucosidase MAL12 (MAL12, Saccharomyces cerevisiae S288c, UniProt P53341)
UniProt P53341, sequence (whole entry, looked up): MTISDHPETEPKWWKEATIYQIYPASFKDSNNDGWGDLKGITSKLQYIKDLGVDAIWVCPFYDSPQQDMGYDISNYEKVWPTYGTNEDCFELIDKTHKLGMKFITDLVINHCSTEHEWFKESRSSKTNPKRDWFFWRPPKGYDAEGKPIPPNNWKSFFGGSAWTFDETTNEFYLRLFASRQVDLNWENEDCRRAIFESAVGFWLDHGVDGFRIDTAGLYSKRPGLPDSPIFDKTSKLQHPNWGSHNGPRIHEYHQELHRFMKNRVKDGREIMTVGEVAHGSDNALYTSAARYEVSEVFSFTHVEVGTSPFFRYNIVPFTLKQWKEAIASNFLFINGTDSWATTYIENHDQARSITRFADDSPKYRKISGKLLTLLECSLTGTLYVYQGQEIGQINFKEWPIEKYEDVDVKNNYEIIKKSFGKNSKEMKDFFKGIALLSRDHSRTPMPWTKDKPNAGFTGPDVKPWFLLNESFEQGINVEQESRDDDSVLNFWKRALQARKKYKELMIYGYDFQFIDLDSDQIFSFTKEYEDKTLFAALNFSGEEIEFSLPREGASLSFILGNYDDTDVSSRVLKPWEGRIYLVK
PLG: Plasminogen (PLG, Homo sapiens, UniProt P00747)
UniProt P00747, sequence (whole entry, looked up): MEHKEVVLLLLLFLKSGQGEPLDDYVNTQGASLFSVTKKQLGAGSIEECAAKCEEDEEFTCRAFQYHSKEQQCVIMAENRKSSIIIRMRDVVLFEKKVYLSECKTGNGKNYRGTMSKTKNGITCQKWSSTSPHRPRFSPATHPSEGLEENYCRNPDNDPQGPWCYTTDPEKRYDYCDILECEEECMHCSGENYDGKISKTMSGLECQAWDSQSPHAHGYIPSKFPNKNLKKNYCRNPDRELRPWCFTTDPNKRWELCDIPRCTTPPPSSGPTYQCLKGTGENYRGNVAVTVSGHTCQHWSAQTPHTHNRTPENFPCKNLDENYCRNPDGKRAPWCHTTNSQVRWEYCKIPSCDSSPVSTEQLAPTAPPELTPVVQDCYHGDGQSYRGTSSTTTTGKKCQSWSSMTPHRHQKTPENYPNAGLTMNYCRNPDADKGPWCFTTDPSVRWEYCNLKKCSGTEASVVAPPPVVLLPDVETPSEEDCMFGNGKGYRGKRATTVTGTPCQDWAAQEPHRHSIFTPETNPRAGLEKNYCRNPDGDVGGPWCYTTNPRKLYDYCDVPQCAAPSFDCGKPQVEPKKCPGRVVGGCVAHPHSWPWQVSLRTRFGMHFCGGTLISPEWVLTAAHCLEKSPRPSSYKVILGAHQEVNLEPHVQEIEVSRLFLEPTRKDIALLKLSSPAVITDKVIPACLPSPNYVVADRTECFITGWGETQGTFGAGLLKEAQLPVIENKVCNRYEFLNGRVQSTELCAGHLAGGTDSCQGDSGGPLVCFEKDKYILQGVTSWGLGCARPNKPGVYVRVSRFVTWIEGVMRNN
PTGS1: Prostaglandin G/H synthase 1 (PTGS1, Ovis aries, UniProt P05979)
UniProt P05979, sequence (whole entry, looked up): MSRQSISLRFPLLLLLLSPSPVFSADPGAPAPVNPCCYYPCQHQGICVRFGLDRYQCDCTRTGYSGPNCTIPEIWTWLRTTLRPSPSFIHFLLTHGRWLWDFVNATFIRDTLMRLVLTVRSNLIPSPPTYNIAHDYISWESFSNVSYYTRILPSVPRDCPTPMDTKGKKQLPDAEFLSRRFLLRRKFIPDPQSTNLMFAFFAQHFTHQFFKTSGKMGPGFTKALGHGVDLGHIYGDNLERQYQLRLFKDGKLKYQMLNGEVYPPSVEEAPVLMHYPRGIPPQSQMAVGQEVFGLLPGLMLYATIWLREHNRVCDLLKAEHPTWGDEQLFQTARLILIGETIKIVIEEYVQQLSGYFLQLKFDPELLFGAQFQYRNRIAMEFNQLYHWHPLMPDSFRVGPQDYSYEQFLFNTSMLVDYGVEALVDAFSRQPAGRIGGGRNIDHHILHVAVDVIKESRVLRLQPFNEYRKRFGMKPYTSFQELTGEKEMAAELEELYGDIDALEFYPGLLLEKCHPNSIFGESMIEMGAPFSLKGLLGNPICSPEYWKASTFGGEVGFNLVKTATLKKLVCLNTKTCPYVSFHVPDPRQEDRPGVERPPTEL
HTR1A: 5-hydroxytryptamine receptor 1A (HTR1A, Homo sapiens, UniProt P08908)
UniProt P08908, sequence (whole entry, looked up): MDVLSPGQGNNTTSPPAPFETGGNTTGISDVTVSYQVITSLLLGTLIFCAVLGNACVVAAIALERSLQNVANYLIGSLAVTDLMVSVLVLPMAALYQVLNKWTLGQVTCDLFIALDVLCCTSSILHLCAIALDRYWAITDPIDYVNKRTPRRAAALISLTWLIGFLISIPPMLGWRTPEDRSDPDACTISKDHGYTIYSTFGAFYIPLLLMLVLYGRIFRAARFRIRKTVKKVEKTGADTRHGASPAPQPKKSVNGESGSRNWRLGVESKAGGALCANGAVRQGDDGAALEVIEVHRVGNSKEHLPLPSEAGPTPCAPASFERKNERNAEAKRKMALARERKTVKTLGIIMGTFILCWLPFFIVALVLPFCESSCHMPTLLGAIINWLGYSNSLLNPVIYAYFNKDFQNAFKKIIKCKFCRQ
HTR5A: 5-hydroxytryptamine receptor 5A (HTR5A, Homo sapiens, UniProt P47898)
UniProt P47898, sequence (whole entry, looked up): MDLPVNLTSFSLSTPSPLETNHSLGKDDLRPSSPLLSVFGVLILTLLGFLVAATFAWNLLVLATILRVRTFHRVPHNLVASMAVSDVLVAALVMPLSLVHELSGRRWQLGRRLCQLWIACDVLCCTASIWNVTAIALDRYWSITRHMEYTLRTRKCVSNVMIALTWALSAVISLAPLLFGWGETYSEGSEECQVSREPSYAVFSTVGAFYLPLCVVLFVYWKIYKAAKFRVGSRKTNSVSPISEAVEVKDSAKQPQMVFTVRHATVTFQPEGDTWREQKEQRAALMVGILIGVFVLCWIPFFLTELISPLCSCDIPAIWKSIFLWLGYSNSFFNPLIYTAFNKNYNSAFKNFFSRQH
UniProt Q13148, sequence (whole entry, looked up): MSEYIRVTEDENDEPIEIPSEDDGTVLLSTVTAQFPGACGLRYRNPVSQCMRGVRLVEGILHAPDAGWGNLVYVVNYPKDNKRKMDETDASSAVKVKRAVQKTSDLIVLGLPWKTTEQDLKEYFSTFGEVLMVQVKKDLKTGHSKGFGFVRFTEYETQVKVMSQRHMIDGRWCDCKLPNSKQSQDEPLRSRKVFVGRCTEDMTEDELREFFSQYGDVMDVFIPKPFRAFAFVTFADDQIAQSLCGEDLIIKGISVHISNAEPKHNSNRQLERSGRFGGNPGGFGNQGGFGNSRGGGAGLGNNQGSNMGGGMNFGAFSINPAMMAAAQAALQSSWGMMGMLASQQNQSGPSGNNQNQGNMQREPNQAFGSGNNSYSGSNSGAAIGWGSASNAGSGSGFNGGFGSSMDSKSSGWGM
UniProt Q16654, sequence (whole entry, looked up): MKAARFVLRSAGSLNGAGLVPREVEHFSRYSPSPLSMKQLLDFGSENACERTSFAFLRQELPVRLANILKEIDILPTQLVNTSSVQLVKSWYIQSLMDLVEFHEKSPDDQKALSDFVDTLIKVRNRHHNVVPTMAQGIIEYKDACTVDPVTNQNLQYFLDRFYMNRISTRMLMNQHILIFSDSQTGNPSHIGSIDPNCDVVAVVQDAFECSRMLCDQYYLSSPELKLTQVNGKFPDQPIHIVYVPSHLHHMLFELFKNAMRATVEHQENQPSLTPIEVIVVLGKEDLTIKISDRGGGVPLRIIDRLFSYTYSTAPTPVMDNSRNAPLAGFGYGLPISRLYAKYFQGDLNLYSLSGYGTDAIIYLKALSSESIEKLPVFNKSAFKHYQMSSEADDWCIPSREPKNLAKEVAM
UniProt P25101, sequence (whole entry, looked up): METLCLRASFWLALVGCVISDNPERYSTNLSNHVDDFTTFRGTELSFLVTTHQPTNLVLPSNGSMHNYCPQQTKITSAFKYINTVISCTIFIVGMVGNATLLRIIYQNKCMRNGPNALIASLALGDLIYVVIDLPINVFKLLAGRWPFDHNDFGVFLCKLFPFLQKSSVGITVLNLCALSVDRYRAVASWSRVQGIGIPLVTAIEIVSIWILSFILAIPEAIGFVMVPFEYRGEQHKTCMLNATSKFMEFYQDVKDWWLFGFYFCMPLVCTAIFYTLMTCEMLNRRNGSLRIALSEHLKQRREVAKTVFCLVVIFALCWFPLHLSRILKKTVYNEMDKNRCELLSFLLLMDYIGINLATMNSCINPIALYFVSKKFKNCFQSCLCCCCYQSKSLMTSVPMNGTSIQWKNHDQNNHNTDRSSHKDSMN

`COc1cc(C(=O)Nc2cccc(NC(=O)c3cc(F)c(F)cc3Cl)c2)cc(OC)c1OC` gave an inhibition of 33.5 ± 14.9% (USP51; enzyme activity, inhibitor; 1 µM).
For `O=C1c2sc(-c3ccc(N4CCC(F)C4)nc3F)nc2CCN1c1cccnc1` (stereo not drawn), the inhibition was 66.2% and 69% (TAR DNA-binding protein 43, aggregated (TARDBP, Homo sapiens, UniProt Q13148); radioligand binding; homogenate, FTLD-TDP, type A; 250 nM, together with: [3H]ACI-19626).
`COc1ccccc1O[C@@H]1O[C@H](CO)[C@H](O)[C@H](O)[C@H]1O` gave an inhibition of 10 ± 4.3% (Adhesin FmlH lectin domain; binding to desialylated bovine submaxillary mucin, inhibitor, ELISA competition; UPEC UTI89; 1 µM).
The inhibition of `CCOC(=O)CCCCC1NCCc2cc(O)c(O)cc21` (stereo not drawn) is reported as 18.1 ± 2.51% (MAL12; enzyme activity, inhibitor; 100 µM, DMSO solvent, together with: pNPG substrate).
For `CC(C)[C@H](NC(=O)[C@@H](N)CCC(=O)O)C(=O)N[C@@H](CC(N)=O)C(=O)N[C@@H](Cc1ccc(O)cc1)C(=O)N[C@@H](CC(=O)O)C(=O)N[C@@H](Cc1ccccc1)C(=O)NCC(=O)NCC(=O)N[C@@H](CCCCN)C(=O)O`, the inhibition was 76.8% (ACE (Homo sapiens, UniProt P12821); enzyme activity, inhibitor; 1.4 mM).
`O=C(Nc1cccc(C(=O)Nc2ccc(S(=O)(=O)O)c3cc(S(=O)(=O)O)cc(S(=O)(=O)O)c23)c1)Nc1cccc(C(=O)Nc2ccc(S(=O)(=O)O)c3cc(S(=O)(=O)O)cc(S(=O)(=O)O)c23)c1` gave an inhibition of 91% (Genome polyprotein, NS3 helicase domain (Hepatitis C virus genotype 1b, UniProt Q9WMX2); DNA binding, inhibitor; hepatitis C virus; 100 µM, together with: Cy5-dT15 DNA).
`Cc1c(C)c2ccc(O[C@@H]3O[C@H](CO)[C@H](O)[C@H](O)[C@H]3O)cc2oc1=O` has an inhibition of 19.8 ± 3.8% (Adhesin FmlH lectin domain; binding to desialylated mucin, ELISA competition; UPEC UTI89; 10 µM, together with: desialylated bovine submaxillary mucin).
For `Cc1ccc(CNC(=O)[C@H](CCc2ccccc2)NC(=O)[C@H](CC(=O)NCC(C)(C)C)NC(=O)c2ccc(OCc3ccccc3)cc2)cc1`, the inhibition was -13% (PLG; enzyme activity, inhibitor; 100 µM).
`CC(=O)N[C@H]1[C@@H](Oc2ccc([N+](=O)[O-])cc2)O[C@H](CO)[C@H](O)[C@@H]1O` gave an inhibition of 6.3 ± 3.7% (Adhesin FmlH lectin domain; binding to desialylated mucin, ELISA competition; UPEC UTI89; 10 µM, together with: desialylated bovine submaxillary mucin).
For `CS(=O)(=O)c1ccc(-n2cc(C=NN=c3[nH]c(-c4ccc([N+](=O)[O-])cc4)cs3)c(-c3ccc(Br)cc3)n2)cc1`, the inhibition was 6.49% (PTGS1; enzyme activity; 0.01 µM).
The inhibition of `COc1ncc2nc(C)n(Cc3ncc(S(N)(=O)=O)cc3F)c2c1-c1ccccc1` is reported as 13.6% (HTR1A; antagonist, cell-based; 10 µM).
With `N#Cc1ccc(O[C@@H]2O[C@H](CO)[C@H](O)[C@H](O)[C@H]2O)cc1` the inhibition was 19.2 ± 4.8% (Adhesin FmlH lectin domain; binding to desialylated mucin, ELISA competition; UPEC UTI89; 10 µM, together with: desialylated bovine submaxillary mucin).
With `COc1ccc(C[C@H](NC(=O)Cc2cccc(Oc3ccccc3)c2)C(=O)N[C@@H](Cc2c[nH]c3ccccc23)C(=O)NCc2ccc(C)cc2)cc1OC` the inhibition was -12% (CAPN1 (Homo sapiens, UniProt P07384); enzyme activity, inhibitor; 100 µM).
`Cc1cc(=O)oc2cc(O[C@@H]3O[C@H](CO)[C@H](O)[C@H](O)[C@H]3O)ccc12` has an inhibition of 19.7 ± 4.2% (Adhesin FmlH lectin domain; binding to desialylated mucin, ELISA competition; UPEC UTI89; 10 µM, together with: desialylated bovine submaxillary mucin).
The inhibition of `CCCCn1c(SCc2nc(-c3ccc(CC)cc3)no2)nc2cc3c(cc2c1=O)OCO3` is reported as 38.6 ± 8.8% (USP51; enzyme activity, inhibitor; 1 µM).
The inhibition of `Cc1ccccc1O[C@@H]1O[C@H](CO)[C@H](O)[C@H](O)[C@H]1O` is reported as 87.3 ± 3.7% (Adhesin FmlH lectin domain; binding to desialylated mucin, ELISA competition; UPEC UTI89; 100 µM).
For `C[Si](C)(C)C[C@H](CN)CC(=O)O`, the inhibition was 3% (HTR1A; ligand displacement, radioligand; 250 µM).
With `CC1Cc2ccccc2N1C(=O)CN1CCN(c2ccccc2)CC1` (stereo not drawn) the inhibition was 12.7% (HTR5A; radioligand binding; concentration not given, together with: [3H]LSD).
The inhibition of `C[C@@H](O)[C@H](NC(=O)c1ccc(OCc2ccccc2)cc1)C(=O)N[C@@H](CCc1ccccc1)C(=O)NCc1ccccc1Cl` is reported as -11% (PLG; enzyme activity, inhibitor; 100 µM).
`CC(C)Cn1c(SCC(=O)N2CCc3ccccc3C2)nc2cc(Cl)ccc2c1=O` has an inhibition of 0% (ADRA2B (Homo sapiens, UniProt P18089); ligand displacement, radioligand; 10 µM).
The inhibition of `CCn1cc(-c2cccc(C(F)(F)F)c2)c2sc(C(=N)NC3CCS(=O)(=O)CC3)cc2c1=O` is reported as -13.1% (Bromodomain testis-specific protein, BD1 (BRDT, Homo sapiens, UniProt Q58F21); 1 µM).
For `C[Si]1(C[C@H](CN)CC(=O)O)CCCC1`, the inhibition was -17% (High affinity choline transporter 1 (Rattus norvegicus, UniProt Q9JMD7); ligand displacement, radioligand; 70 µM).
With `O=C1c2sc(-c3ccc(N4CCC(CO)CC4)nc3F)nc2CCN1c1cccnc1` the inhibition was -9% (EDNRA (Homo sapiens, UniProt P25101); ligand displacement, radioligand; 1 µM).
`C/C1=C\CC/C(C)=C/CC(C)(C)/C=C/C1` has an inhibition of 42 ± 2% (Trpv1 (Rattus norvegicus, UniProt O35433); ion current, inhibitor, outside-out patch clamp; 10 µM, together with: pH 5.5 activation).
For `C[C@@H]1CN(Cc2ccccc2)[C@H]2C[C@@H]1CC(=O)[C@@H]2C`, the inhibition was 47% (Mu-type opioid receptor (Cavia porcellus, UniProt A0ACM8Q262); binding, radioligand binding; guinea pig brain membranes; 1 µM, together with: [3H]DAMGO).
`COc1ccc(-n2cnc3c2NC(=O)CC3c2cc3c(c(OC)c2OC)OCO3)cc1` (stereo not drawn) has an inhibition of 0% (USP51; enzyme activity, inhibitor; 1 µM).
`Cc1nc2c(F)cc(-c3nc(Nc4ccc(CNC(=O)CCCCCCC(=O)NO)cc4)ncc3F)cc2n1C(C)C` has an inhibition of 0% (PDK4 (Homo sapiens, UniProt Q16654); enzyme activity, inhibitor; 1 µM).
The inhibition of `CC(=O)N1C(=O)NC(C)=C(C(=O)OCC(C)C)[C@H]1c1cccc([N+](=O)[O-])c1` is reported as roughly 80% (CACNA1H (Homo sapiens, UniProt O95180); ion current, inhibitor, patch clamp; HEK293; 10 µM).
The inhibition of `CCOC(=O)NCc1ccc(O[C@@H]2O[C@@H](C)[C@H](O)[C@@H](O)[C@H]2O)cc1` is reported as 25.9 ± 2.34% (MAL12; inhibitor; 100 µg/mL, 0.4167 h, together with: p-nitrophenyl glucoside substrate).
The inhibition of `COc1cc(-c2nc3c4sc5nc(C)cc(C)c5c4ncn3n2)cc(OC)c1OC` is reported as 3.7 ± 0.6% (USP51; enzyme activity, inhibitor; 1 µM).
`CS(=O)(=O)c1ccc(-n2cc(C=NN=c3[nH]c(-c4ccc(Br)cc4)cs3)c(-c3ccc(Br)cc3)n2)cc1` has an inhibition of 75.9% (PTGS1; enzyme activity; 10 µM).
For `C=CC(=O)Nc1cc(-c2nn(C3CCN(CCNC(=O)[C@H](C)CCC45CC6CC(CC(C6)C4)C5)CC3)c3ncnc(N)c23)ccc1Oc1ccccc1`, the inhibition was -7.4% (MAST4 (Homo sapiens, UniProt O15021); inhibitor, KiNativ profiling; biochemical; 2 µM).
For `Cc1ccc(-c2nn(-c3ccc(S(C)(=O)=O)cc3)cc2C=NN=c2[nH]c(-c3ccc([N+](=O)[O-])cc3)cs2)cc1`, the inhibition was 78% (PTGS1; enzyme activity; 100 µM).
The inhibition of `COC(=O)C1C(c2ccc(C)cc2)c2c(O)n[nH]c2CC1(C)O` (stereo not drawn) is reported as 10.2 ± 3.1% (USP51; enzyme activity, inhibitor; 1 µM).
For `CC(=O)c1ccc(NC(=O)CN2CCC(c3nc(-c4cccc(F)c4)no3)CC2)cc1`, the inhibition was 21.8% (DRD2 (Homo sapiens, UniProt P14416); enzyme activity, inhibitor; 10 µM).
`NC(=O)C[C@H]1CCc2sc3ncnc(O[C@H]4CC[C@H](N5CCOCC5)CC4)c3c21` gave an inhibition of 5% (VRK1 (Homo sapiens, UniProt Q99986); enzyme activity, inhibitor; 10 µM).
The inhibition of `CC(=O)C12NC(C)(C)CC1(C)C(=O)C1=C2c2c(c3c4n2C(C)(C)CC2=C4C4(CC(C)(C)NC(C)(C4)C2=O)CC3(C)C)C(=O)C(C)(C)N1` (single isomer, unassigned; (-)) is reported as 34.8% (P2X purinoceptor 7 (P2RX7, Homo sapiens, UniProt Q99572); ion current, patch clamp; P2X7; 10 µM).
The inhibition of `CC(C)Cc1ccc(-c2nn(-c3ccc(S(C)(=O)=O)cc3)cc2C=NN=c2[nH]c(-c3ccc(Br)cc3)cs2)cc1` is reported as 11.4% (PTGS1; enzyme activity; 0.1 µM).
`CN(Cc1ccc(/C=C/C(=O)NO)cc1)CC12CC3CC(CC(C3)C1)C2` has an inhibition of 0% (human EP2 receptor; agonist radioligand binding; 0.05 µM).
`OC[C@H]1O[C@H](Oc2cccc(-c3ccccc3)c2)[C@H](O)[C@@H](O)[C@H]1O` gave an inhibition of 45.6 ± 2.5% (Adhesin FmlH lectin domain; binding to desialylated mucin, ELISA competition; UPEC UTI89; 100 µM).
`CC(C)(C)CNC(=O)C[C@H](NC(=O)CCc1ccccc1)C(=O)N[C@@H](Cc1cccnc1)C(=O)NCc1ccccc1Cl` has an inhibition of -10% (PLG; enzyme activity, inhibitor; 100 µM).
`CS(=O)(=O)c1ccc(-n2cc(C=NN=c3[nH]c(-c4ccc([N+](=O)[O-])cc4)cs3)c(-c3ccc([N+](=O)[O-])cc3)n2)cc1` gave an inhibition of 3.49% (PTGS1; enzyme activity; 0.01 µM).
For `OC[C@H]1O[C@@H](Oc2cccc3cccnc23)[C@H](O)[C@@H](O)[C@H]1O`, the inhibition was 48.1 ± 2% (Adhesin FmlH lectin domain; binding to desialylated mucin, ELISA competition; UPEC UTI89; 10 µM, together with: desialylated bovine submaxillary mucin).
For `COc1cc(-c2cnn3ccc(NCCN(C)C)nc23)cc(OC)c1OC`, the inhibition was 3% (crk3, with CYC6 (Leishmania mexicana, UniProt O15851); IMAP fluorescence polarisation; 30 µM, with L. major CYC6).
`COc1ccc(C(=O)/C=C/c2ccccc2-c2c[nH]c3ccc(C#N)cc23)c(O)c1` has an inhibition of 14% (ATM (Homo sapiens, UniProt Q13315); enzyme activity, inhibitor; 20 µM).
`CO[C@@H](C)c1c(NC(=O)Nc2cnc(-n3nccn3)c(C(F)(F)F)c2)cnc2sc(C)nc12` has an inhibition of -5.9% (HTR5A; ligand displacement, radioligand; 10 µM).
`COc1ccc(NC(=O)c2nnn3cc(C)[nH]c(=O)c23)cc1OC` gave an inhibition of 48.5 ± 16.6% (USP51; enzyme activity, inhibitor; 1 µM).
For `CN(C)C/C=C/C(=O)Nc1ccc2nc(NCCCCCN(C)C)nc(NCCCCCCN(C)C)c2c1`, the inhibition was 97% (SETD2 (Homo sapiens, UniProt Q9BYW2); enzyme activity, inhibitor, radiometric; 50 µM).

Repeated from above:
`CC(C)Cn1c(SCC(=O)N2CCc3ccccc3C2)nc2cc(Cl)ccc2c1=O` has an inhibition of 0% (ADRA2B (Homo sapiens, UniProt P18089); ligand displacement, radioligand; 10 µM).
For `C=CC(=O)Nc1cc(-c2nn(C3CCN(CCNC(=O)[C@H](C)CCC45CC6CC(CC(C6)C4)C5)CC3)c3ncnc(N)c23)ccc1Oc1ccccc1`, the inhibition was -7.4% (MAST4 (Homo sapiens, UniProt O15021); inhibitor, KiNativ profiling; biochemical; 2 µM).
For `Cc1ccc(CNC(=O)[C@H](CCc2ccccc2)NC(=O)[C@H](CC(=O)NCC(C)(C)C)NC(=O)c2ccc(OCc3ccccc3)cc2)cc1`, the inhibition was -13% (PLG; enzyme activity, inhibitor; 100 µM).
`CC(=O)N[C@H]1[C@@H](Oc2ccc([N+](=O)[O-])cc2)O[C@H](CO)[C@H](O)[C@@H]1O` gave an inhibition of 6.3 ± 3.7% (Adhesin FmlH lectin domain; binding to desialylated mucin, ELISA competition; UPEC UTI89; 10 µM, together with: desialylated bovine submaxillary mucin).
`CS(=O)(=O)c1ccc(-n2cc(C=NN=c3[nH]c(-c4ccc([N+](=O)[O-])cc4)cs3)c(-c3ccc([N+](=O)[O-])cc3)n2)cc1` gave an inhibition of 3.49% (PTGS1; enzyme activity; 0.01 µM).
